Measured values from different studies.
Lines come from different studies, so protocols differ.
MAP3K7 with TAB1: Mitogen-activated protein kinase kinase kinase 7, with TAB1 (MAP3K7, Homo sapiens, UniProt O43318)
MAP3K7: Mitogen-activated protein kinase kinase kinase 7 (MAP3K7, Homo sapiens, UniProt O43318)

`C=CC(=O)Nc1cccc(-c2cnc3[nH]cc(C(=O)NC(C)(C)C)c3n2)c1` has an inhibition of 17% (MAP3K7 with TAB1; enzyme activity, inhibitor; 0.1 µM).
`O=C(Cc1ccc(OCc2ccccc2)cc1)NC1(C(=O)O)CCN(C(=O)c2ccc(-c3cccc(Cl)c3)cc2)CC1`: “activity vs control” 98% (MAP3K7; enzyme activity, inhibitor; 10 µM).
Under “activity vs control”, `CNC(=O)C[C@H](Cc1ccc(C#N)cc1)NC(=O)c1cc(-c2ccc(CN[C@H](C)c3ccc(C)cc3)o2)ccc1Cl` is recorded as 103% (MAP3K7; enzyme activity, inhibitor; 1 µM).
`CS(=O)(=O)Nc1cccc(-c2csc3cnc(Nc4ccc(N5CCN(CCCCCOc6cccc7c6C(=O)N(C6CCC(=O)NC6=O)C7=O)CC5)cc4)nc23)c1` (stereo not shown) has an inhibition of -15.7% (MAP3K7; probe labelling, inhibitor, KiNativ chemoproteomics; MOLT-4; 1 µM).
`C=CC(=O)Nc1cc(-c2nn(C3CCN(CCNC(=O)[C@H](C)CCC45CC6CC(CC(C6)C4)C5)CC3)c3ncnc(N)c23)ccc1Oc1ccccc1` gave an inhibition of 22% (MAP3K7; inhibitor, KiNativ profiling; biochemical; 2 µM).
With `COc1c(Cl)cccc1Nc1c(-c2ccncc2C#C[C@@]2(C)CCCN2C(=O)/C=C/CN(C)C)[nH]c2c1C(=O)NCC2` the remaining binding was 91% (MAP3K7; binding, competition with immobilised ligand; 3 µM).
With `NC(=O)[C@@H](O)C[C@H]1CCc2sc3ncnc(O[C@H]4CC[C@H](N5CCOCC5)CC4)c3c21` the inhibition was 1% (MAP3K7; enzyme activity, inhibitor; 10 µM).
`CCn1cc(C(=O)O)c(=O)c2c(N)c(F)c(NC3CCCCC3)cc21` gave an inhibition of 9% (MAP3K7; kinase activity; 0.1 µM, with: ATP at Km).
`CN1CCN(Cc2ccc(-c3ccc(CO[C@H]4CCC[C@@H]4NC(=O)c4cc(-c5cnn(C)c5)cnc4N)cc3)cc2)CC1` has an inhibition of 3% (MAP3K7 with TAB1; SelectScreen kinase profiling; 0.1 µM).
`Cc1ccc(-c2c(/C=C(\C#N)C(=O)NC(C)C)n(CCCO)c3ncnc(N)c23)cc1` gave a remaining binding of 100% (MAP3K7; cell-free assay, competition with immobilised ligand; 1 µM).
`Nc1ncc(-c2cc(-c3cnn(CC(F)(F)F)c3)ncc2F)nc1C(=O)NC1CNCC(F)C1` (stereo not shown) gave a remaining activity of 100% (MAP3K7; enzyme activity; 1 µM; reference: DMSO control).
The remaining binding of `C=CC(=O)N1CCc2ccc(-n3c(=O)ccc4cnc5ccc(-c6cnn(C)c6)cc5c43)cc21` is reported as 83% (MAP3K7; KINOMEscan; 1 µM; reference: DMSO control).
`O=C=[N][Ru-4]123([n]4c5ccc(O)cc5c5c6c(c7cc(F)c[n+]1c7c54)C(=O)NC6=O)[S+]1CC[S+]2CC[S+]3CC1` (stereo not shown) gave a remaining activity of 107% (MAP3K7; enzyme activity; 100 nM, human enzyme, with: 10 µM ATP; reference: untreated).
`Cc1cccc(O[C@H]2CCC[C@@H](C(C)CNCc3ccncc3)C2)c1` (relative stereo) gave an inhibition of -1% (MAP3K7 with TAB1; kinome profiling; 1 µM).
`CNC(=O)C1CCN(c2cc(C)c(F)cc2NC(=O)c2ccc(-c3cc(O)ccc3C)c(C)c2)CC1` has a remaining binding of 100% (MAP3K7; binding, competition with immobilised ligand; 1 µM).
The remaining binding of `COc1cc(Nc2nc(C)cc(-c3cnn4nc(OC)ccc34)n2)cc(C(F)(F)F)c1` is reported as 73% (MAP3K7; binding, competition with immobilised ligand; 1 µM).
